Measured values gathered from unrelated publications.
Lines come from different studies, so protocols differ. Several values in a cell are separate wells, animals, samples, runs or records. ± marks the error that the study gave.
Voltage-dependent P/Q-type calcium channel subunit alpha-1A: Voltage-dependent P/Q-type calcium channel subunit alpha-1A (Homo sapiens, UniProt O00555)
ADRA2C: Alpha-2C adrenergic receptor (ADRA2C, Homo sapiens, UniProt P18825)
UCHL1: Ubiquitin carboxyl-terminal hydrolase isozyme L1 (UCHL1, Homo sapiens, UniProt P09936)
LATS1: Serine/threonine-protein kinase LATS1 (LATS1, Homo sapiens, UniProt O95835)
Rab GDP dissociation inhibitor beta with Rab1A: Rab GDP dissociation inhibitor beta, with Rab1A (Homo sapiens, UniProt P50395)
KCNC4: Voltage-gated potassium channel KCNC4 (KCNC4, Homo sapiens, UniProt Q03721)
EPHA1: Ephrin type-A receptor 1 (EPHA1, Homo sapiens, UniProt P21709)

Compound	target	assay	test system	conditions	endpoint	value
CCn1cc(C(=O)O)c(=O)c2cc(F)c(N3CCNCC3)nc21	Voltage-dependent P/Q-type calcium channel subunit alpha-1A	ion current, antagonist	HEK293	30 µM	inhibition	-2%
OCCCN1CC[C@@H]2C[C@H]1c1cc(-c3ccc(C(F)(F)F)cc3)ccc12	ADRA2C	radioligand binding, PDSP competition binding	–	10 µM	inhibition	< 50%
N#Cc1cc(C(C=O)=C(Cl)c2ccccc2)c([N+](=O)[O-])cc1C#N	UCHL1	covalent, intact protein LC-MS	–	12.5 µM	labelling	13.8%
Cc1cc(-c2ccnc3[nH]cc(F)c23)cc(F)c1[C@@]1(O)[C@H](C)CN(C2CCS(=O)(=O)CC2)C[C@@H]1C	LATS1	ATP probe binding, KiNativ, item: Lys2 site	HEK293T cell lysate	0.1 µM	inhibition	12.6%
CN(C(=O)n1cnc(-c2ccc[n+]([O-])c2)c1)C1CCCCC1	Faah (Rattus norvegicus, UniProt P97612)	enzyme activity, inhibitor	rat, liver	0.1 mg/kg, 8 h	inhibition	inhibited
Cc1nn(-c2nc3c(F)cc(F)cc3s2)c(O)c1C(c1ccc(C(F)(F)F)cc1)c1c(C)nn(-c2nc3c(F)cc(F)cc3s2)c1O	CGAS (Homo sapiens, UniProt Q8N884)	enzyme activity, inhibitor, pyrophosphatase-coupled	–	50 µM, 1.5 h, together with: HT-DNA	inhibition	93.1%
NCCNC(=O)c1ccc(Cl)cn1	Voltage-dependent P/Q-type calcium channel subunit alpha-1A	ion current, antagonist	HEK293	10 µM	inhibition	3%
Cc1nc(NC(=O)N2CCCC2)sc1-c1csc(C(C)(C)C)n1	PIK3CA (Homo sapiens, UniProt P42336, K776A)	enzyme activity	–	3 µM	inhibition	14%
Cc1cc(C)cc(COc2cc3c(cc2OCc2cc(C)cc(C)c2)[C@H]2C[C@](O)(Cc4cn(Cc5cnccn5)nn4)C[C@H](C)N2CC3)c1	Rab GDP dissociation inhibitor beta with Rab1A	GDI2-Rab1A interaction, NanoLuc complementation	–	6.25 µM	inhibition	75.6%
O=C1CC2(CCCC2)CC(=O)N1CCCCN1CCN(c2ncccn2)CC1	Voltage-dependent P/Q-type calcium channel subunit alpha-1A	ion current, antagonist	HEK293	10 µM	inhibition	10%
Cc1ccc(C(=O)Nc2ccc3ccccc3c2)o1	KCNC4	ion current, inhibitor, whole-cell patch clamp	–	10 µM	inhibition	0% and 2.76% and 2.15%
COc1ccc2c3c1O[C@H]1C[C@@H](O)C=C[C@@]31CCN(C)C2	Voltage-dependent P/Q-type calcium channel subunit alpha-1A	ion current, antagonist	HEK293	3 µM	inhibition	-13%
Cc1c(-c2ccccc2)oc2c(C(=O)OCCN3CCCCC3)cccc2c1=O	Anoctamin-1 (Ano1, Mus musculus, UniProt Q8BHY3)	ion current, inhibitor	HEK293 transfected	30 µM, at +80 mV	inhibition	~14% and 14.4%
Cc1cc(-c2ccnc3[nH]cc(F)c23)cc(F)c1[C@@]1(O)[C@H](C)CN(C(=O)CN)C[C@@H]1C	LATS1	ATP probe binding, KiNativ, item: Lys2 site	HEK293T cell lysate	1 µM	inhibition	81.2%
[2H]c1cc(C)c(NC(=O)c2cnc(Nc3cc(N4CCCCC4)nc(C)n3)s2)c(Cl)c1	EPHA1	–	–	0.001 µM	inhibition	> 50%
Cc1cc(C)cc(COc2cc3c(cc2OCc2cc(C)cc(C)c2)[C@H]2C[C@](O)(Cc4cn(Cc5ccc(S(C)(=O)=O)cc5)nn4)C[C@H](C)N2CC3)c1	Rab GDP dissociation inhibitor beta with Rab1A	GDI2-Rab1A interaction, NanoLuc complementation	–	6.25 µM	inhibition	86.3%
C#Cc1cc(-c2cc(Nc3nc(N[C@@H](C)c4ccc(F)cn4)ncc3Cl)n[nH]2)ccc1C=O	PDGFRB (Homo sapiens, UniProt P09619)	enzyme activity, inhibitor	–	0.2 µM	inhibition	101%
OO	Histone acetyltransferase RTT109, with Vps75 (Saccharomyces cerevisiae, UniProt Q07794)	enzyme activity, inhibitor	–	250 µM, Rtt109-Vps75 complex, no DTT, together with: [3H]acetyl-CoA	inhibition	15 ± 4%
Cc1cc(C)cc(COc2cc3c(cc2OCc2cc(C)cc(C)c2)[C@H]2C[C@](O)(Cc4cn(CCc5ccc(N)cc5)nn4)C[C@H](C)N2CC3)c1	Rab GDP dissociation inhibitor beta with Rab1A	GDI2-Rab1A interaction, NanoLuc complementation	–	6.25 µM	inhibition	98.3%
CCc1nn(C)c2nc(-c3ccc(C(=O)O)cc3)nc(NCc3ccc(F)cc3)c12	PDE4B (Homo sapiens, UniProt Q07343)	enzyme activity	–	10 µM, together with: [3H]cAMP	inhibition	49%
CS(=O)(=O)Nc1cccc(-c2csc(NC(=O)CSc3nc4nccnc4c(=O)n3CCc3ccccc3)n2)c1	Phosphatidylinositol 4,5-bisphosphate 3-kinase catalytic subunit alpha isoform, with p55 gamma (PIK3CA, Homo sapiens, UniProt P42336)	kinase activity, inhibitor	–	10 µM, together with: PIK3R3 complex	inhibition	3%

Compound	target	assay	test system	conditions	endpoint	value
O=C(NO)c1ccc(CN2CCCCc3ccccc32)c(F)c1	ADRA2C	radioligand binding, PDSP radioligand binding	–	10 µM	inhibition	-8.95%
Cc1cc(C)cc(COc2cc3c(cc2OCc2cc(C)cc(C)c2)[C@H]2C[C@](O)(Cc4cn(Cc5ccc(C#N)cc5)nn4)C[C@H](C)N2CC3)c1	Rab GDP dissociation inhibitor beta with Rab1A	GDI2-Rab1A interaction, NanoLuc complementation	–	6.25 µM	inhibition	93.1%
CNCCC(Oc1ccc(C(F)(F)F)cc1)c1ccccc1.Cl (centres unmarked)	Voltage-dependent P/Q-type calcium channel subunit alpha-1A	ion current, antagonist	–	10 µM	inhibition	26%
COc1cc(C(=O)NS(=O)(=O)c2ccccc2C)ccc1Cc1cn(C)c2ccc(NC(=O)OC3CCCC3)cc12	Volume-regulated anion channel subunit LRRC8C, part LRRC8A IL1 chimera (LRRC8C, Homo sapiens, UniProt Q8TDW0, E6A)	ion current, inhibitor, whole-cell patch clamp	HCT LRRC8-/- cells	0.3 µM, +100 mV	inhibition	47.3% and 42.1% and 24.5% and 76.2%
Cc1cc(C)cc(COc2cc3c(cc2OCc2cc(C)cc(C)c2)[C@H]2C[C@](O)(Cc4cn(CC56CC7CC(CC(C7)C5)C6)nn4)C[C@H](C)N2CC3)c1	Rab GDP dissociation inhibitor beta with Rab1A	GDI2-Rab1A interaction, NanoLuc complementation	–	6.25 µM	inhibition	95.4%
[2H]c1cc(C)c(NC(=O)c2cnc(Nc3cc(N4CCC(O)CC4)nc(C)n3)s2)c(Cl)c1	EPHA1	–	–	0.001 µM	inhibition	> 50%
CCCN(CCC)CCc1cccc2c1CC(=O)N2	Voltage-dependent P/Q-type calcium channel subunit alpha-1A	ion current, antagonist	HEK293	3 µM	inhibition	4%
Cc1nn(-c2nc3ccccc3s2)c(O)c1C(c1ccccc1C(=O)O)c1c(C)nn(-c2nc3ccccc3s2)c1O	Cyclic GMP-AMP synthase, catalytic domain; with DNA (CGAS, Homo sapiens, UniProt Q8N884)	cGAS phase separation, inhibitor	–	0.625 µM	inhibition	85.2%
CC[C@@H]1[C@H](F)C(=O)N[C@@H]1COc1nccc2cc(C(N)=O)c(OC)cc12	MAP3K4 (Homo sapiens, UniProt Q9Y6R4)	ATP-site probe binding, ActivX profiling	THP-1 cell lysate	0.01 mM, Lys2 site	inhibition	18.5%
CC(=O)Nc1ccc(O)cc1	Voltage-dependent P/Q-type calcium channel subunit alpha-1A	antagonist	HEK293	3 µM	inhibition	19%
COc1ccc(F)cc1C(=O)NCc1ccc(-c2nn([C@@H](C)C(F)(F)F)c(N)c2C(N)=O)cc1	GSK3B (Homo sapiens, UniProt P49841)	target engagement, competitive chemoproteomics	human PBMCs	0.1 µM	inhibition	-62.8%
C/C=C/C(=O)Nc1ccc(CCn2cc(C[C@@]3(O)C[C@@H]4c5cc(OCc6cc(C)cc(C)c6)c(OCc6cc(C)cc(C)c6)cc5CCN4[C@@H](C)C3)nn2)cc1	Rab GDP dissociation inhibitor beta with Rab1A	GDI2-Rab1A interaction, NanoLuc complementation	–	6.25 µM	inhibition	96.2%
COc1cc2c(cc1OC)C(=O)C(CC1CCN(Cc3ccccc3)CC1)C2 (centres unmarked)	Voltage-dependent P/Q-type calcium channel subunit alpha-1A	ion current, antagonist	HEK293	10 µM	inhibition	17%
NC(=O)CCNC(=S)NCCCC[C@H](NS(=O)(=O)c1cccc(F)c1)C(=O)N[C@@H](Cc1c[nH]c2ccccc12)C(=O)NC1CCC1	SIRT2 (Homo sapiens, UniProt Q8IXJ6)	deacylase activity	–	10 µM, together with: NAD+ 500 µM	inhibition	< 0%
O=c1ccc2c(OCCCCO)c3ccoc3cc2o1	Kcna3 (Mus musculus, UniProt P16390)	potassium current	L929	25 µM	inhibition	40%
O=C(Nc1cccc2c(=O)cc(-c3nnn[nH]3)oc12)c1ccc(OCCCCc2ccccc2)cc1	Volume-regulated anion channel subunit LRRC8C, part LRRC8A IL1 chimera (LRRC8C, Homo sapiens, UniProt Q8TDW0, Y126F)	ion current, inhibitor, whole-cell patch clamp	HCT LRRC8-/- cells	0.1 µM, -100 mV	inhibition	32.3% and 8.08% and 23.9% and 9.23% and 11%
CCc1oc2ccccc2c1C(=O)c1cc(Br)c(O)c(Br)c1	SLC22A12 (Homo sapiens, UniProt Q96S37, F360A)	urate uptake	HEK293T	0.5 µM, 10 min, 37 °C, together with: 200 µM [14C]urate	inhibition	45% and 100% and 55% and 44.7% and 95.9%
Cc1ncc([N+](=O)[O-])n1C(=NO)c1ccccc1C(F)(F)F	CAMKI kinase	–	–	10 µM	inhibition	13.3%
CC(C)c1noc2ncc(C(=O)c3ccccc3O)cc12	KCNC4	ion current, whole-cell patch-clamp	–	10 µM, hKv3.4	inhibition	0.894%
CC(Cl)C(=O)N(Cc1nc(C2CCCCCC2)no1)C1CC1 (centres unmarked)	UCHL1	covalent, intact protein LC-MS	–	12.5 µM	labelling	47.1%

Some of these lines once more:
Compound	target	assay	test system	conditions	endpoint	value
NC(=O)CCNC(=S)NCCCC[C@H](NS(=O)(=O)c1cccc(F)c1)C(=O)N[C@@H](Cc1c[nH]c2ccccc12)C(=O)NC1CCC1	SIRT2 (Homo sapiens, UniProt Q8IXJ6)	deacylase activity	–	10 µM, together with: NAD+ 500 µM	inhibition	< 0%
OO	Histone acetyltransferase RTT109, with Vps75 (Saccharomyces cerevisiae, UniProt Q07794)	enzyme activity, inhibitor	–	250 µM, Rtt109-Vps75 complex, no DTT, together with: [3H]acetyl-CoA	inhibition	15 ± 4%
[2H]c1cc(C)c(NC(=O)c2cnc(Nc3cc(N4CCCCC4)nc(C)n3)s2)c(Cl)c1	EPHA1	–	–	0.001 µM	inhibition	> 50%
Cc1cc(C)cc(COc2cc3c(cc2OCc2cc(C)cc(C)c2)[C@H]2C[C@](O)(Cc4cn(Cc5ccc(S(C)(=O)=O)cc5)nn4)C[C@H](C)N2CC3)c1	Rab GDP dissociation inhibitor beta with Rab1A	GDI2-Rab1A interaction, NanoLuc complementation	–	6.25 µM	inhibition	86.3%
